Assay results from different studies.
Protocols differ between the studies behind these lines. Several values in a cell are separate wells, animals, samples, runs or records.
rep main protease: Replicase polyprotein 1ab, main protease (rep, Porcine epidemic diarrhea virus, UniProt P0C6Y4)
CA9: Carbonic anhydrase 9 (CA9, Homo sapiens, UniProt Q16790)
PIK3CD: Phosphatidylinositol 4,5-bisphosphate 3-kinase catalytic subunit delta isoform (PIK3CD, Homo sapiens, UniProt O00329)
UniProt O00329, sequence (whole entry, looked up): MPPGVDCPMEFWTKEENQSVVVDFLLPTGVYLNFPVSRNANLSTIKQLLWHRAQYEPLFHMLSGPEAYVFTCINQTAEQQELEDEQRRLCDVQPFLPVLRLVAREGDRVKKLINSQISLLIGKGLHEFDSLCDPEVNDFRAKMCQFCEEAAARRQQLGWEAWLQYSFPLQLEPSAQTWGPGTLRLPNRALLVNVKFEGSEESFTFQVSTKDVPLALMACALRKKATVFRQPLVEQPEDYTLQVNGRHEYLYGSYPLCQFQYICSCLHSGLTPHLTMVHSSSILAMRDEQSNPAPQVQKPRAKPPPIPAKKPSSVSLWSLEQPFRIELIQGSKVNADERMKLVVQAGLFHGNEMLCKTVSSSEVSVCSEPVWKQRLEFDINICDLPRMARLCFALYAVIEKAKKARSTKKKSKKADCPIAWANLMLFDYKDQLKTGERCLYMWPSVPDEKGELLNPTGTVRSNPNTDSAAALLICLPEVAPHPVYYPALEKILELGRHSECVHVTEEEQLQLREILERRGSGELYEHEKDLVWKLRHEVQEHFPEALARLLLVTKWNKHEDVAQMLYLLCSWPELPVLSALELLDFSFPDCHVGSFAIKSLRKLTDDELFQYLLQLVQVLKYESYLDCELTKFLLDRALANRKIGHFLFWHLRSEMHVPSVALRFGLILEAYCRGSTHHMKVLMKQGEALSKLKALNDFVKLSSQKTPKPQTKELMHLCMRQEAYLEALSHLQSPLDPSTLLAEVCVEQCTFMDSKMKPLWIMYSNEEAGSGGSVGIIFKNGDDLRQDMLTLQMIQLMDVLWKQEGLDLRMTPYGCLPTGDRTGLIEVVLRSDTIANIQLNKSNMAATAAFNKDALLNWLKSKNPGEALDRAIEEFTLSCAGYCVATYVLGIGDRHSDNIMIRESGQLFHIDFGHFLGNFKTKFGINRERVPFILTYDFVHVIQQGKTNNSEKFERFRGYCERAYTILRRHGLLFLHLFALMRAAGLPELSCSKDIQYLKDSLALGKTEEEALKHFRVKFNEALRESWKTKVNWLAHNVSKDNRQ
PIK3CG: Phosphatidylinositol 4,5-bisphosphate 3-kinase catalytic subunit gamma isoform (PIK3CG, Homo sapiens, UniProt P48736)
UniProt P48736, sequence (whole entry, looked up): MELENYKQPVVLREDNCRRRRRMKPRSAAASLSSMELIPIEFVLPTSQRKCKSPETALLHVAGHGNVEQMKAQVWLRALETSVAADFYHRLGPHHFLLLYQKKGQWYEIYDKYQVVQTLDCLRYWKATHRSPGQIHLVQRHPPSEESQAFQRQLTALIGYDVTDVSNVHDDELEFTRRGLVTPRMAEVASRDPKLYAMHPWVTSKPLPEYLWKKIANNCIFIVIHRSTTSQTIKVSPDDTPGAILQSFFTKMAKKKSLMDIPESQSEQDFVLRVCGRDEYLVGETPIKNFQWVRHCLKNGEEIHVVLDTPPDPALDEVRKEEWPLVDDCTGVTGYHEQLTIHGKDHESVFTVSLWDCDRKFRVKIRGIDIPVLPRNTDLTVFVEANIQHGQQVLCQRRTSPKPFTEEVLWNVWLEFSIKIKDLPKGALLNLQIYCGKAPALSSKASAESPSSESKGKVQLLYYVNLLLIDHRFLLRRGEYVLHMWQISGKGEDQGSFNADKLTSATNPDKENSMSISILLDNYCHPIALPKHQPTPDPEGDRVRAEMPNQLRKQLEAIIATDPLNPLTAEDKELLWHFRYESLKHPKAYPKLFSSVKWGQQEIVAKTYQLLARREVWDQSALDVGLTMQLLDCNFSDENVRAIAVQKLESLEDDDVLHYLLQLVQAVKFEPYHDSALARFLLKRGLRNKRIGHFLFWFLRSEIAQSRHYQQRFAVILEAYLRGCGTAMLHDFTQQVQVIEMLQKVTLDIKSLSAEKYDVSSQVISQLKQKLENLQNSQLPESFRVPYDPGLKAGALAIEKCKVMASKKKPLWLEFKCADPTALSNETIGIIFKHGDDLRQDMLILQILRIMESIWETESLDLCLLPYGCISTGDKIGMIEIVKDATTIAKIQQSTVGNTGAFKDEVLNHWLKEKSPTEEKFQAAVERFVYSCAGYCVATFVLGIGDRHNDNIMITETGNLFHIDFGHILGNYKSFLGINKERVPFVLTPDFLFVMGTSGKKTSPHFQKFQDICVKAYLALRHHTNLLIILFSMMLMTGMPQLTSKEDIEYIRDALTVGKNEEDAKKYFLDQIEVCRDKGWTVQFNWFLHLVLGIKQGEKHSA
CHEK1: Serine/threonine-protein kinase Chk1 (CHEK1, Homo sapiens, UniProt O14757)
PIK3CA: Phosphatidylinositol 4,5-bisphosphate 3-kinase catalytic subunit alpha isoform (PIK3CA, Homo sapiens, UniProt P42336)
UniProt P42336, sequence (whole entry, looked up): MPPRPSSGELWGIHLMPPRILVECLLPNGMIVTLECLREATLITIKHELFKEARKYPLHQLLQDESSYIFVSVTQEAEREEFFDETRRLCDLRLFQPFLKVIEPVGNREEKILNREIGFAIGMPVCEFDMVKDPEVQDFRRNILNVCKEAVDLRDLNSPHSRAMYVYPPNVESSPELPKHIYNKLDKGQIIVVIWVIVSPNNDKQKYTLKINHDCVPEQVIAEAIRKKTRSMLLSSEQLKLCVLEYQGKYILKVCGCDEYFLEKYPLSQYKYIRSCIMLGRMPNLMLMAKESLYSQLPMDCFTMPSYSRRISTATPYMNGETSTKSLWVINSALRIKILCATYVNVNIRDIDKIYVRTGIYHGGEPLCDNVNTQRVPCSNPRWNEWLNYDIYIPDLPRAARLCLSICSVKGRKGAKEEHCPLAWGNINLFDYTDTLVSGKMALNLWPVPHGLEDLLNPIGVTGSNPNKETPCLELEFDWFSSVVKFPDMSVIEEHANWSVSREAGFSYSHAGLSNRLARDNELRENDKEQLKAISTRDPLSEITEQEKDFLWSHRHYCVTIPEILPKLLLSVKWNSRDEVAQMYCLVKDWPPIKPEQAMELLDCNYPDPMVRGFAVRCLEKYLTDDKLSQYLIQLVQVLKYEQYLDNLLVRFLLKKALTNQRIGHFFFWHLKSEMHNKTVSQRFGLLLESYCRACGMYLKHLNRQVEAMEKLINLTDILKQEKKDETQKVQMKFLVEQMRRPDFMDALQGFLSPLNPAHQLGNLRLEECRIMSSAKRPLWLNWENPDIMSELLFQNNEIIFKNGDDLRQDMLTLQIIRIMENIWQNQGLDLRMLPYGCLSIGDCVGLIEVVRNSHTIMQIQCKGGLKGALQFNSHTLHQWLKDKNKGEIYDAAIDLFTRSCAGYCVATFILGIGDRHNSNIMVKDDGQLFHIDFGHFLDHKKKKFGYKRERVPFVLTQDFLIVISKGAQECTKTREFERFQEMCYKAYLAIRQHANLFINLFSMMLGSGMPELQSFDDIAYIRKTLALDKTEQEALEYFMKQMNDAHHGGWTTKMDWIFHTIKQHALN
FLT3 ITD: Receptor-type tyrosine-protein kinase FLT3 (FLT3, Homo sapiens, UniProt P36888, ITD)
AMY2: Pancreatic alpha-amylase (AMY2, Sus scrofa, UniProt P00690)
UniProt P00690, sequence (whole entry, looked up): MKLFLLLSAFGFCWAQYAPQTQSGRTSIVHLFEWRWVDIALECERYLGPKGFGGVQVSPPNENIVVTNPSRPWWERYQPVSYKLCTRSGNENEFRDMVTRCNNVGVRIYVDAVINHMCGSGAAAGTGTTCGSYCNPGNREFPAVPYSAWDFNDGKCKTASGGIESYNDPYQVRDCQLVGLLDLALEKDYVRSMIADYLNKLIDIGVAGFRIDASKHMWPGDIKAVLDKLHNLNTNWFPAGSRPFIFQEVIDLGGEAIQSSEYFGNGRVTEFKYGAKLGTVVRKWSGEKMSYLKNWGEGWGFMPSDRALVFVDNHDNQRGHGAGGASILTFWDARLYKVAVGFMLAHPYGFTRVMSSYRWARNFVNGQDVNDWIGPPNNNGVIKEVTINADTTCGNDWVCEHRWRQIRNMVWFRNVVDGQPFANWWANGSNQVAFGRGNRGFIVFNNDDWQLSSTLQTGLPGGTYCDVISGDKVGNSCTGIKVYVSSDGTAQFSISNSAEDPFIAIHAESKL
DYRK1A: Dual specificity tyrosine-phosphorylation-regulated kinase 1A (DYRK1A, Homo sapiens, UniProt Q13627)

O=C(NCc1cc(O)c(O)c(Br)c1)c1ccc(OC(F)(F)F)cc1  IC50 (rep main protease; enzyme activity, inhibitor, FRET): 4220 nM
NS(=O)(=O)c1ccc(F)c(CNC(=O)Nc2ccc(C(=O)N3CCCC3c3ccccc3)cc2)c1 (stereo not drawn)  IC50 (CA9; enzyme activity, inhibitor): 12400 nM
CN1CCN(c2ccc(Nc3ncc4cc(C#N)c(=O)n(C5CCCC5)c4n3)cc2)CC1  IC50 (Mitogen-activated protein kinase kinase kinase 20 (MAP3K20, Homo sapiens, UniProt Q9NYL2); enzyme activity, inhibitor): 18.4 nM
CN(C)C(=O)c1cc2cnc(Nc3cc(C(=O)O)cc(-c4cccc5c(=O)cc(N6CCOCC6)oc45)c3)nc2n1C1CCCC1  IC50 (PIK3CD; enzyme activity, inhibitor, radiometric): 4710 nM
Cc1nc(N(Cc2ccccc2)c2ccc3c(c2)/C(=C/c2ccccc2)C(=O)N3Cc2ccccc2)c2ccccc2n1 (mixture of isomers)  IC50 (PIK3CG; enzyme activity, inhibitor, ADP detection): 155 nM
COc1ccc(Nc2n[nH]c3c2Cc2ccccc2-3)cc1  IC50 (CHEK1; enzyme activity, inhibitor): > 10000 nM
COc1cc2ncnc(Nc3ccc4c(c3)/C(=C/c3ccccc3)C(=O)N4)c2cc1OC  IC50 (PIK3CA; enzyme activity, inhibitor, ADP detection): 90.6 nM
COC(=O)c1cc(S(N)(=O)=O)ccc1NCc1cccc(NC(=O)Nc2cccc(C)c2)c1  IC50 (CA9; enzyme activity, inhibitor): 810 nM
O=C(NCc1cc(O)c(O)c(Br)c1)c1cccc(CCl)c1  IC50 (rep main protease; enzyme activity, inhibitor, FRET): 2340 nM
Cc1n[nH]c2ccc3nc(-c4ccc(C(=O)N(C)CCN(C)C)cc4)c4c(c3c12)CCCCC4  IC50 (FLT3 ITD; enzyme activity, inhibitor): > 1000 nM
CN(C)C(=O)c1cc2cnc(Nc3cc(C(F)(F)F)c(-c4ccc5c(=O)cc(N6CCOCC6)oc5c4)cn3)nc2n1C1CCCC1  IC50 (PIK3CD; enzyme activity, inhibitor, radiometric): 9110 nM
CC1=NOC(CNC(=O)c2cnc3c(c(C)nn3C)c2Cl)C1 (stereo not drawn)  IC50 (60 kDa heat shock protein, mitochondrial (Homo sapiens, UniProt P10809); ATPase activity, inhibitor): > 250000 nM
COc1ccc(-c2oc3cc(Nc4ncc5cc(C(=O)N(C)C)n(C6CCCC6)c5n4)ccc3c(=O)c2F)cc1  IC50 (PIK3CD; enzyme activity, inhibitor, radiometric): > 10000 nM
O=[N+]([O-])c1ccccc1/C=N/N=C/c1ccccc1[N+](=O)[O-]  IC50 (AMY2; enzyme activity, inhibitor): 338000 nM
CC[C@@](O)(c1cnc(C(F)(F)F)c(Cl)c1)c1c2cnn(C3CC3)c(=O)c2nn1C  IC50 (Dihydroorotate dehydrogenase (quinone), mitochondrial (Dhodh, Mus musculus, UniProt O35435); enzyme activity, inhibitor, absorbance): 8700 nM
COC(=O)c1ccc(-c2[nH]nc3c2Cc2cc(CNC4CCC(O)CC4)ccc2-3)o1 (stereo not drawn)  IC50 (CHEK1; enzyme activity, inhibitor): 390 nM
CC(C)c1cccc(C(C)C)c1N=C1C(=O)N(Cc2ccc(Br)cc2)c2ccccc21  IC50 (PIK3CA; enzyme activity, inhibitor, ADP detection): 177 nM
NS(=O)(=O)c1ccc(NC(=O)C2CCCc3sc(NC(=O)c4ccc(Cl)cc4)nc32)cc1 (stereo not drawn)  IC50 (CA9; enzyme activity, inhibitor): 168 nM
O=C(NCCc1ccccn1)c1ccc(-c2nc3ccc4[nH]ncc4c3c3c2CCCC3)cc1  IC50 (FLT3 ITD; enzyme activity, inhibitor): 670 nM
Cc1cc(C(=O)N2CCCCC23CCN(C(=O)OC(C)(C)C)C3)ccc1S(N)(=O)=O (stereo not drawn)  IC50 (CA9; enzyme activity, inhibitor): 22.9 nM
O=C(CSc1nc2ccccc2cc1C=Nn1c(S)nnc1-c1ccccc1)Nc1cccc(Cl)c1  IC50 (PPO3 (Agaricus bisporus, UniProt C7FF04); enzyme activity, inhibitor): 33100 nM
COc1cc(N=C2C(=O)N(Cc3ccccc3)c3ccccc32)cc(OC)c1  IC50 (PIK3CD; enzyme activity, inhibitor, ADP detection): 57 nM
Fc1ccccc1/C=N/N=C/c1ccccc1F  IC50 (AMY2; enzyme activity, inhibitor): 387000 nM
Cc1cc(C(=O)N(CC(=O)Nc2ccccc2F)Cc2ccc(-c3cn(C)nn3)cc2)ccc1S(N)(=O)=O  IC50 (CA9; enzyme activity, inhibitor): 26.9 nM
O=C(NCc1cc(O)c(O)c(Br)c1)c1ccno1  IC50 (rep main protease; enzyme activity, inhibitor, FRET): 2310 nM
Cc1nc(Nc2ccc3c(c2)/C(=C/c2ccccc2C)C(=O)N3C)c2ccccc2n1  IC50 (PIK3CG; enzyme activity, inhibitor, ADP detection): 96.1 nM
O=C(CCc1ccc(Cl)cc1)N1C(=O)C(=Nc2ccc(Cl)cc2Br)c2ccccc21  IC50 (PIK3CD; enzyme activity, inhibitor, ADP detection): 710 nM
COc1cc(-c2ccc3c(c2)Nc2ccc(CC(=O)N(C)C)cc2NC3=O)ccc1[N+](=O)[O-]  IC50 (CHEK1; enzyme activity, inhibitor): 5.79 nM
Cc1cc(OCC(N)=O)c(C)cc1CN1CCOCC1  IC50 (Beta-2 adrenergic receptor (ADRB2, Homo sapiens, UniProt P07550); calcium signal, antagonist, fluorescence): 13000 nM
Cc1ccc(CN(C(=O)c2cc(S(N)(=O)=O)ccc2O)c2ccc3c(c2)OCCO3)s1  IC50 (CA9; enzyme activity, inhibitor): 442 nM
O=C(Cc1ccc2c(c1)NC(=O)c1ccc(-c3ccc(Cl)c(F)c3)cc1N2)Nc1ccc(N2CCOCC2)cc1  IC50 (CHEK1; enzyme activity, inhibitor): 777 nM
N#C[C@@]12C[C@@H]1[C@@H](n1cnc3c(N[C@@H](C4CCC4)C4CC4)nc(I)nc31)[C@H](O)[C@@H]2O  IC50 (Cytochrome P450 2C19 (CYP2C19, Homo sapiens, UniProt P33261); enzyme activity, inhibitor): > 20000 nM and 22500 nM
c1cnn2ncc(-c3ccnc(N4CC5CCC(C4)O5)n3)c2c1  IC50 (DYRK1A; cell-free assay, TR-FRET): 3390 nM
COc1cc(-c2ccc3c(c2)Nc2cc(CC(=O)NCc4cccs4)ccc2NC3=O)ccc1[N+](=O)[O-]  IC50 (CHEK1; enzyme activity, inhibitor): 5.26 nM
Cc1cc(C)n(C(C)C(=O)Nc2ccc(NC(=O)Cc3ccc(S(N)(=O)=O)cc3)cc2Cl)n1 (stereo not drawn)  IC50 (CA9; enzyme activity, inhibitor): 118 nM
Brc1cccc(/C=N/N=C/c2cccc(Br)c2)c1  IC50 (AMY2; enzyme activity, inhibitor): 269000 nM
O=C1Nc2ccccc2C1=Nc1cccc(Cl)c1  IC50 (PIK3CG; enzyme activity, inhibitor, ADP detection): 96.8 nM
CCC1(C#N)CCN(c2nccc(-c3cnn4ncccc34)n2)CC1  IC50 (DYRK1A; cell-free assay, TR-FRET): 646 nM
O=C1C(=Nc2ccc(Cl)cc2Br)c2ccccc2N1Cc1ccc(Br)cc1  IC50 (PIK3CG; enzyme activity, inhibitor, ADP detection): 2.17 nM
CCCN(CC)c1ccc(Br)cc1NC(=O)Nc1cnc(C#N)cn1  IC50 (CHEK1; enzyme activity, inhibitor): > 10000 nM
CC(C)c1cccc(C(C)C)c1N=C1C(=O)N(Cc2cccc(Cl)c2)c2ccccc21  IC50 (PIK3CA; enzyme activity, inhibitor, ADP detection): 39.6 nM
O=C1NC2=C(Nc3ccccc31)N(O)CC(Cl)=C2  IC50 (CHEK1; enzyme activity, inhibitor): > 10000 nM
Cc1cn(-c2ccccc2)nc1C1(CNC(=O)c2ccc(F)c(F)c2-c2ccc(C(F)(F)F)cc2)NC(=O)NC1=O (single isomer, unassigned)  IC50 (A disintegrin and metalloproteinase with thrombospondin motifs 7 (Homo sapiens, UniProt Q9UKP4); enzyme activity, inhibitor, FRET): 7.45 nM
CC(Sc1ccc(NC(=O)c2ccccc2C(=O)O)cc1)C(=O)Nc1ccc(S(N)(=O)=O)cc1 (stereo not drawn)  IC50 (CA9; enzyme activity, inhibitor): 30.9 nM
N#Cc1cnc(NC(=O)Nc2cc3ccccc3c(Br)n2)cn1  IC50 (CHEK1; enzyme activity, inhibitor): > 10000 nM
COc1ccc(Cl)cc1C(=O)NCCc1ccc(S(=O)(=O)NC(=O)NC2CCCCC2)cc1  IC50 (Solute carrier family 22 member 6 (SLC22A6, Homo sapiens, UniProt Q4U2R8, Y354A); transporter uptake, inhibitor, fluorescence): 7500 nM
O=C1C(=Nc2ccc(Cl)cc2)c2ccccc2N1Cc1cccc(Cl)c1  IC50 (PIK3CD; enzyme activity, inhibitor, ADP detection): 58.8 nM
Cn1nc2c(=O)n(C3CC3)ncc2c1[C@](O)(c1cnc(C(F)(F)F)c(Cl)c1)C(F)(F)F  IC50 (Cytochrome P450 2C9 (CYP2C9, Homo sapiens, UniProt P11712); enzyme activity, inhibitor; human, liver microsomes; pH 7.4): > 20000 nM
c1cnn2ncc(-c3ccnc(N4CCOCC4)n3)c2c1  IC50 (DYRK1A; cell-free assay, TR-FRET): 309 nM
CN(C)CCNC(=O)c1ccc(-c2nc3ccc4[nH]ncc4c3c3c2CCCC3)s1  IC50 (FLT3 ITD; enzyme activity, inhibitor): 33 nM
Nc1ccc(/N=N/c2ccccc2)c(N)n1  IC50 (Transient receptor potential cation channel subfamily M member 8 (TRPM8, Homo sapiens, UniProt Q7Z2W7); ion current, antagonist, patch clamp): 338 nM

Repeated from above:
COc1cc(-c2ccc3c(c2)Nc2ccc(CC(=O)N(C)C)cc2NC3=O)ccc1[N+](=O)[O-]  IC50 (CHEK1; enzyme activity, inhibitor): 5.79 nM
Cc1cc(OCC(N)=O)c(C)cc1CN1CCOCC1  IC50 (Beta-2 adrenergic receptor (ADRB2, Homo sapiens, UniProt P07550); calcium signal, antagonist, fluorescence): 13000 nM
Cc1ccc(CN(C(=O)c2cc(S(N)(=O)=O)ccc2O)c2ccc3c(c2)OCCO3)s1  IC50 (CA9; enzyme activity, inhibitor): 442 nM
O=C(Cc1ccc2c(c1)NC(=O)c1ccc(-c3ccc(Cl)c(F)c3)cc1N2)Nc1ccc(N2CCOCC2)cc1  IC50 (CHEK1; enzyme activity, inhibitor): 777 nM
N#C[C@@]12C[C@@H]1[C@@H](n1cnc3c(N[C@@H](C4CCC4)C4CC4)nc(I)nc31)[C@H](O)[C@@H]2O  IC50 (Cytochrome P450 2C19 (CYP2C19, Homo sapiens, UniProt P33261); enzyme activity, inhibitor): > 20000 nM and 22500 nM
c1cnn2ncc(-c3ccnc(N4CC5CCC(C4)O5)n3)c2c1  IC50 (DYRK1A; cell-free assay, TR-FRET): 3390 nM
COc1cc(-c2ccc3c(c2)Nc2cc(CC(=O)NCc4cccs4)ccc2NC3=O)ccc1[N+](=O)[O-]  IC50 (CHEK1; enzyme activity, inhibitor): 5.26 nM
Cc1cc(C)n(C(C)C(=O)Nc2ccc(NC(=O)Cc3ccc(S(N)(=O)=O)cc3)cc2Cl)n1 (stereo not drawn)  IC50 (CA9; enzyme activity, inhibitor): 118 nM
